Measurements collected from several papers.
Every numbered part comes from another study and shows a few of its results, in no order. Several values in a cell are separate wells, animals, samples, runs or records.
Chain of UniProt P35626 (whole entry, looked up): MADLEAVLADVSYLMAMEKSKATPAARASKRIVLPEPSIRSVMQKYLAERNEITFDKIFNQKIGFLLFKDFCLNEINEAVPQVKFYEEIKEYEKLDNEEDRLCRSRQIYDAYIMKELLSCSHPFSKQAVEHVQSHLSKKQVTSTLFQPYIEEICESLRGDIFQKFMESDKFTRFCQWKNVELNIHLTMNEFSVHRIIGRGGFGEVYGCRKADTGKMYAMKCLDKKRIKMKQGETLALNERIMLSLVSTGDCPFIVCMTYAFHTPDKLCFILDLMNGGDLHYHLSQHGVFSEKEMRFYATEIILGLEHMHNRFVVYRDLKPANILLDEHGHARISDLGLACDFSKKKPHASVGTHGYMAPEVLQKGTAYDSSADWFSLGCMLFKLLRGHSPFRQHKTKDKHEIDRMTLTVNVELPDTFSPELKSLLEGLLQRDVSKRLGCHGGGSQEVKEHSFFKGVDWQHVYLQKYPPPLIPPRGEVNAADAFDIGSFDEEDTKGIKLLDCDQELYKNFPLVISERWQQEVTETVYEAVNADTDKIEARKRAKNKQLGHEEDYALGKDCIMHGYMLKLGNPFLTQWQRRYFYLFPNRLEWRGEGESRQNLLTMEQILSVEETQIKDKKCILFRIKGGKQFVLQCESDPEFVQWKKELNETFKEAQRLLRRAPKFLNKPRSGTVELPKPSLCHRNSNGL
Chain of UniProt O95747 (whole entry, looked up): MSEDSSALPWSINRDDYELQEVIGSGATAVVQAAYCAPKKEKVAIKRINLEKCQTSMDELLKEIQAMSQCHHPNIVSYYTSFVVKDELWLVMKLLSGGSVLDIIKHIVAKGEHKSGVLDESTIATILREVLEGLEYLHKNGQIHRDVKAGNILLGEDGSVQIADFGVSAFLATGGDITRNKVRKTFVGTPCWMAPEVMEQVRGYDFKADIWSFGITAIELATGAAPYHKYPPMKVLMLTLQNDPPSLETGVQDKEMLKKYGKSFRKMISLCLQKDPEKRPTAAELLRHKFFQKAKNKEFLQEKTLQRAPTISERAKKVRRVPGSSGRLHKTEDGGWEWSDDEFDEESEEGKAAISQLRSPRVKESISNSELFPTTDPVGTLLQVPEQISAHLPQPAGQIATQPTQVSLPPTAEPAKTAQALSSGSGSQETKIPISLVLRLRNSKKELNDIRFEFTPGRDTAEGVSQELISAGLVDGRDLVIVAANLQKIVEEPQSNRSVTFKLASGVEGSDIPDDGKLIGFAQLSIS

Set 1
SMILES: CO[C@H]1CC[C@H](CNc2ccc(S(=O)(=O)NC(=O)c3ccc(N4CCN(CC5=C(c6ccc(Cl)cc6)CC(C)(C)CC5)CC4)cc3Oc3cnc4[nH]ccc4c3)cc2[N+](=O)[O-])CC1
Observed: cell-free assay
Technique: competition with immobilised ligand
Tested at: 1 µM
target	remaining binding
CLK3 (Homo sapiens, UniProt P49761)	90%
MAPK9 (Homo sapiens, UniProt P45984)	82%
GRK3 (Homo sapiens, UniProt P35626)	79%
GRK4 (Homo sapiens, UniProt P32298)	100%
CDK8 (Homo sapiens, UniProt P49336)	91%
TAOK2 (Homo sapiens, UniProt Q9UL54)	86%
WNK2 (Homo sapiens, UniProt Q9Y3S1)	76%
NEK1 (Homo sapiens, UniProt Q96PY6)	77%
AXL (Homo sapiens, UniProt P30530)	94%
MAP3K2 (Homo sapiens, UniProt Q9Y2U5)	68%

Set 2
Target: DNA polymerase theta, ATPase domain (POLQ, Homo sapiens, UniProt O75417)
Chain of UniProt O75417 (whole entry, unmodified, looked up): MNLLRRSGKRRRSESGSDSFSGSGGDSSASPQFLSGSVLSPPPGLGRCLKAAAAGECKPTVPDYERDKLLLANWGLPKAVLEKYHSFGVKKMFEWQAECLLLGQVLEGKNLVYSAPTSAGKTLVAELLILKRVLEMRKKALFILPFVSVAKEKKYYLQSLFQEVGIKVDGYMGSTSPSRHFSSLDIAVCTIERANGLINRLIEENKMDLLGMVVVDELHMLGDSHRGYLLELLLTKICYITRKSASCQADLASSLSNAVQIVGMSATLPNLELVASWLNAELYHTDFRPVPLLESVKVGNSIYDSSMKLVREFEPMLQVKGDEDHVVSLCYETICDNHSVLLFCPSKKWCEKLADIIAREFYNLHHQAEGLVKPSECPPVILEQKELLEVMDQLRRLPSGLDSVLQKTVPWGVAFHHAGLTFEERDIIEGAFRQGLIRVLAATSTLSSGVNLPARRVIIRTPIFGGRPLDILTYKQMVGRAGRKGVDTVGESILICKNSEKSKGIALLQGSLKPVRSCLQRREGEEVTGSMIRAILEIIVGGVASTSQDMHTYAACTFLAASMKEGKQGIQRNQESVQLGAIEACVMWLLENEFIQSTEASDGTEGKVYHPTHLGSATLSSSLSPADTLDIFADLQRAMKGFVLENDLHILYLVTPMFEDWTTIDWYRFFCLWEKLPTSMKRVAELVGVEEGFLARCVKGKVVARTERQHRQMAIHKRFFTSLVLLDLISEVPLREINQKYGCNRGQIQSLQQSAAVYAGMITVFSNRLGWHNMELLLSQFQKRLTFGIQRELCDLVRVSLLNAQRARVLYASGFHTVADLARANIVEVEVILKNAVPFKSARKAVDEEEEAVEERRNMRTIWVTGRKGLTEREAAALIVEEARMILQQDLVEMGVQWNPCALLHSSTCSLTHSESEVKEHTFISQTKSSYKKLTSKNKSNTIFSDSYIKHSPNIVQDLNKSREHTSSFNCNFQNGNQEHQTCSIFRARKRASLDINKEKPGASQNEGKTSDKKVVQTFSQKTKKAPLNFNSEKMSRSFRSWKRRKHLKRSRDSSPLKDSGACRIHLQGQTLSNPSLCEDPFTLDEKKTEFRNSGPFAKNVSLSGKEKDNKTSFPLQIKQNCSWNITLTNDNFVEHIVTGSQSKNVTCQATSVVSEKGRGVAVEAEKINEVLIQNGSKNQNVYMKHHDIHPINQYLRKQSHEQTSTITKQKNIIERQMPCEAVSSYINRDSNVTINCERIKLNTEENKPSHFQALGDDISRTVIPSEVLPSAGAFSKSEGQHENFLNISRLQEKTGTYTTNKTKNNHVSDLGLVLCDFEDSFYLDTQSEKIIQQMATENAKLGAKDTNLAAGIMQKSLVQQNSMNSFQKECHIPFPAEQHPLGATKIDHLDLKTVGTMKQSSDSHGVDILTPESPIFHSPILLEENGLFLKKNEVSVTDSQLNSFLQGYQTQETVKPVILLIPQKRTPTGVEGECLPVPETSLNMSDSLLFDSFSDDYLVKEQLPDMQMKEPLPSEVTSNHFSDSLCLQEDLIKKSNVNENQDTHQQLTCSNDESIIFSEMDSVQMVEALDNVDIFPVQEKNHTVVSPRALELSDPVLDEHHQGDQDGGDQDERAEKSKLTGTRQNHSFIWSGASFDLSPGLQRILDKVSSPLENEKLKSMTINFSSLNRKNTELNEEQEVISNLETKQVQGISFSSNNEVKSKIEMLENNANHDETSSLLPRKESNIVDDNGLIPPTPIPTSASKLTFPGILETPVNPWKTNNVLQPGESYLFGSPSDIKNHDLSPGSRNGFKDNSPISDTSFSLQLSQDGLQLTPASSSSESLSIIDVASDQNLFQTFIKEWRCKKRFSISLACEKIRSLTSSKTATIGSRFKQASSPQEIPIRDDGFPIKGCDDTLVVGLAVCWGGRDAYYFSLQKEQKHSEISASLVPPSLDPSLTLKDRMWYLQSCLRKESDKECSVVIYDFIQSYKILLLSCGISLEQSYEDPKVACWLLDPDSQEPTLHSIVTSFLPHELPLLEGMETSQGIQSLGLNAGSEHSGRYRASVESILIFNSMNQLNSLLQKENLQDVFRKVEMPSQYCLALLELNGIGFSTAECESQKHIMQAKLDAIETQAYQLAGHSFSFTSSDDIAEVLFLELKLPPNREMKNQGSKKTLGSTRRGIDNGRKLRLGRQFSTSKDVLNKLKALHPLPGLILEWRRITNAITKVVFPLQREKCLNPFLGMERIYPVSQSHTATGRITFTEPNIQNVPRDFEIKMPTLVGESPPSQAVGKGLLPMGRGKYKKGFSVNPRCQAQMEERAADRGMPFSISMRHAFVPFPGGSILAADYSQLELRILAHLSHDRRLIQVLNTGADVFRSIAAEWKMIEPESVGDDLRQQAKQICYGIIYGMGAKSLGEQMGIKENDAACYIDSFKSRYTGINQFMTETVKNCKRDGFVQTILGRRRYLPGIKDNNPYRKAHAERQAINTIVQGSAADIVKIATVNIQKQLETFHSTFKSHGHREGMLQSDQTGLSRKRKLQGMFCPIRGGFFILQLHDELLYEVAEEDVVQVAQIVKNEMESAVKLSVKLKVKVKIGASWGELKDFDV
Observed: enzyme activity
Mode: inhibitor
Tested at: 77 µM
Relative to: untreated
SMILES	remaining activity
CNc1cc2c(Nc3cccc(Br)c3)ncnc2cn1	124%
Cc1[nH]c(/C=C2\C(=O)Nc3ccccc32)c(C)c1CCC(=O)O	109%
Cn1c(N2CCCCS2(=O)=O)nc(C(=O)NCc2ccc(F)cc2)c(O)c1=O	103%
Nc1nccs1	97.1%
CO[C@@]1(NC(=O)C2SC(=C(C(N)=O)C(=O)O)S2)C(=O)N2C(C(=O)O)=C(CSc3nnnn3C)CS[C@@H]21 (stereo partly shown)	94.3%
N#CC(C#N)=C(N)/C(C#N)=C/c1cc(O)c(O)c(O)c1	91%
CN1CCN(CCCN2c3ccccc3Sc3ccc(S(=O)(=O)N(C)C)cc32)CC1	103%
CCN(CC)CCNC(=O)COc1ccc(OC)cc1	102%
CC(C)[C@H](N)C(=O)OCCOCn1cnc2c(=O)nc(N)[nH]c21	100%
CN1C(=O)C(Cc2c[nH]c3ccccc23)NC1=S (stereo not shown)	105% and 98.6%
COC(=O)[C@H](c1ccccc1Cl)N1CCc2sccc2C1	83.1%
Cc1ccc(C)c(OCCCC(C)(C)C(=O)O)c1	97.2% and 102%
c1cc(-c2cnn3cc(-c4ccc(OCCN5CCCCC5)cc4)cnc23)ccn1	85.4%

Set 3
SMILES: C=CC(=O)N1CCC[C@@H](n2nc(-c3ccc(Oc4ccccc4)cc3)c3c(N)ncnc32)C1
Mode: inhibitor
Tested at: 1 µM
target	observed	inhibition [%]
KIT (Homo sapiens, UniProt P10721)	–	46
CDK11B (Homo sapiens, UniProt P21127)	enzyme activity	1
NTRK2 (Homo sapiens, UniProt Q16620)	enzyme activity	36
MAPK14 (Homo sapiens, UniProt Q16539)	enzyme activity	7
EPHA1 (Homo sapiens, UniProt P21709)	–	48
PHKG1 (Homo sapiens, UniProt Q16816)	enzyme activity	17
PLK2 (Homo sapiens, UniProt Q9NYY3)	enzyme activity	10
PAK2 (Homo sapiens, UniProt Q13177)	enzyme activity	4
BRSK2 (Homo sapiens, UniProt Q8IWQ3)	–	13
ULK1 (Homo sapiens, UniProt O75385)	enzyme activity	21
OXSR1 (Homo sapiens, UniProt O95747)	enzyme activity	36
PDGFRB (Homo sapiens, UniProt P09619)	enzyme activity	59
CRK2 (Plasmodium falciparum, UniProt P61075)	enzyme activity	10

Set 4
Target: Focal adhesion kinase 1 (PTK2, Homo sapiens, UniProt Q05397)
Chain of UniProt Q05397 (whole entry, looked up): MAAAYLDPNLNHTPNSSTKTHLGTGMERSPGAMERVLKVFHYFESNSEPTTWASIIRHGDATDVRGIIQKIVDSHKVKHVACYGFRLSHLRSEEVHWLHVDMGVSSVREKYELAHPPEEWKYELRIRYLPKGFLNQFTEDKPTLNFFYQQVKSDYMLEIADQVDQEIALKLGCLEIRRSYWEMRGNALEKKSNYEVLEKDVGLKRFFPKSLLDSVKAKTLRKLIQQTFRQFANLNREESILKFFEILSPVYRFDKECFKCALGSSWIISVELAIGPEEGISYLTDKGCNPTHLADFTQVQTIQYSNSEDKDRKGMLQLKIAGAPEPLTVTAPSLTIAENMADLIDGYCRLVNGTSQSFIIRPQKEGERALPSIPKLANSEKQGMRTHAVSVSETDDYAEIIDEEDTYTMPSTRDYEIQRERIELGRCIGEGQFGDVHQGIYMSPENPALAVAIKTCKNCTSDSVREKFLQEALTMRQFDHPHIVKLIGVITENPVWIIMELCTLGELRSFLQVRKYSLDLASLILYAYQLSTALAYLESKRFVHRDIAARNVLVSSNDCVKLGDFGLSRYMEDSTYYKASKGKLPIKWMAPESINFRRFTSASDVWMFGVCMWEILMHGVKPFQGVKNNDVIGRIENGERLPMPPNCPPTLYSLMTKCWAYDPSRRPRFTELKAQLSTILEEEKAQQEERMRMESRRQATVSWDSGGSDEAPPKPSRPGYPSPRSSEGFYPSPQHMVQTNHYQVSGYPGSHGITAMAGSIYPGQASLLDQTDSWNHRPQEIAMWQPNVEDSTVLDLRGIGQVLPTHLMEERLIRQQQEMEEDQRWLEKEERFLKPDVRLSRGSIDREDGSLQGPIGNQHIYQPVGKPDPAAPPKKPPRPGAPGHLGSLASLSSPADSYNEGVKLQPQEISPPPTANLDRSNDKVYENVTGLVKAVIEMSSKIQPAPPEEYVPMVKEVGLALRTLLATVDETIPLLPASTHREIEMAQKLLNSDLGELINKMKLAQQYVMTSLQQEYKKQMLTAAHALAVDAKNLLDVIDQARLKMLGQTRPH
Observed: enzyme activity
Mode: inhibitor
Tested at: 0.5 µM
Relative to: control
Structure (SMILES)	remaining activity [%]
CC(C)n1cnc2c(Nc3cccc(Cl)c3)nc(NCCO)nc21	68.9
CC(C)(C)c1nc2c3cc[nH]c(=O)c3c3cc(F)ccc3c2[nH]1	35.3
O=Nc1c(-c2c(O)[nH]c3ccccc23)[nH]c2ccccc12	65.8
O=C(O)/C=C/c1cc(Br)c(Br)c(Br)c1Br	94
NC(=O)c1cccc(-c2cc(Nc3ccc(OC(F)(F)F)cc3)ncn2)c1	100
CCN(CC)CCCCN1c2ccccc2Oc2ccc(Cl)cc21	108
c1cc(-c2cnn3cc(-c4ccc(OCCN5CCCCC5)cc4)cnc23)ccn1	110
O=C1NC(=O)/C(=C/c2ccc3c(c2)OC(F)(F)O3)S1	94.9
NC(=O)c1ccc(-c2nc(-c3ccc4c(c3)OCCO4)c(-c3ccccn3)[nH]2)cc1	103
O=C(c1ccccc1)c1ccc(N2CCOCC2)cc1O	109
N#CC(c1ccnc(NCCc2cccnc2)n1)c1nc2ccccc2s1 (stereo not shown)	93
FC(F)(F)c1ccc(/C=C/c2nc(COc3ccc(CCCCn4ccnn4)cc3)co2)cc1	101
COc1cc2c(N3CCN(C(=O)Nc4ccc(OC(C)C)cc4)CC3)ncnc2cc1OCCCN1CCCCC1	101
CCCCc1c(-c2ccc(O)cc2)[nH]c2nccnc12	83.1
CC(C)N(CCC(=O)c1ccc2ccccc2c1)Cc1ccccc1	96.3
Nc1nc(Nc2ccc(S(N)(=O)=O)cc2)nn1C(=S)Nc1c(F)cccc1F	25.3
N#C/C(=C(/N)SC1C=CC=CC1)c1cccc(C(O)c2ccncc2)c1 (stereo not shown)	96.5
C[C@@H](N)[C@H]1CC[C@H](C(=O)Nc2ccncc2)CC1	97.5
Clc1ccc(Nc2nnc(Cc3ccncc3)c3ccccc23)cc1	101
COc1cc2c(Nc3ccc(Br)cc3F)ncnc2cc1OCC1CCN(C)CC1	100
O=c1c(-c2ccc(F)cc2)c(-c2ccncc2)[nH]n1-c1ccc(Cl)cc1	95.1
CNc1cc2c(Nc3cccc(Br)c3)ncnc2cn1	90.2

A few entries again (set 1):
target	remaining binding
CLK3 (Homo sapiens, UniProt P49761)	90%
MAPK9 (Homo sapiens, UniProt P45984)	82%
GRK3 (Homo sapiens, UniProt P35626)	79%
GRK4 (Homo sapiens, UniProt P32298)	100%
CDK8 (Homo sapiens, UniProt P49336)	91%
TAOK2 (Homo sapiens, UniProt Q9UL54)	86%
WNK2 (Homo sapiens, UniProt Q9Y3S1)	76%
NEK1 (Homo sapiens, UniProt Q96PY6)	77%
AXL (Homo sapiens, UniProt P30530)	94%
